# Measurements gathered from unrelated publications.
# Protocols differ between the studies behind these lines. ± gives the spread as reported.
Structure (SMILES),target or system,test,test system,setting,scale,measurement,value
CCN(CC)CC(=O)Nc1cccc(-n2cc(-c3ccc4ccc(-c5cn(-c6cccc(NC(=O)CN(CC)CC)c6)nn5)cc4c3)nn2)c1,RCC4,"PCR angiogenesis array, refers to: CCL2",,"5 x IC50, 4 h, normoxia",relative to: untreated,fold regulation,-1.04
COC1CN([C@H]2CC[C@H]([C@@]3(C)Oc4c(Cl)cc(C(=O)NCc5c(SC)cc(C)[nH]c5=O)c(C)c4O3)CC2)C1,,"RNA-seq, refers to: SGCB mouse homolog","mouse, HT-1376 xenograft, whole blood",dose not given,relative to: vehicle,log2 fold change,0.776
COc1cc(O)ccc1CCC(c1ccc(O)cc1)c1cc2c(c(C)c1O)OC(c1ccc(O)cc1)CC2 (mixture of isomers),,,human blood,"0.3 µM, with: A23187",,4-HDHA level,26 ± 8 pg/mL
Nc1ncc(-c2cc(-c3cnn(CC(F)(F)F)c3)ncc2F)nc1C(=O)NC1CNCC(F)C1 (stereo not drawn),ERK2,KINOMEscan competition binding,,1 µM,relative to: DMSO control,remaining binding,96%
CNS(=O)(=O)Nc1nccc(Cc2c(C)c3ccc(Oc4ncccc4F)cc3oc2=O)c1F,SKNO-1,cell viability,,7 days,,IC50,4.99 nM
COc1ccc(C(=O)CCc2cc(C(CCc3ccc(O)cc3OC)c3ccc(O)cc3)c(O)cc2OC)cc1 (racemic),,,human blood,"1 µM, with: A23187",,5-HEPE level,131 ± 44 pg/mL
Cc1ncsc1-c1ccc(C(C)NC(=O)C2CC(O)CN2C(=O)C(NC(=O)CCCCCCCCCCN2CCCC(Nc3ncc(Cl)c(Nc4ccccc4S(=O)(=O)C(C)C)n3)C2)C(C)(C)C)cc1 (stereo not drawn),22Rv1,"RNA-seq, refers to: NAV1",,concentration not given,relative to: DMSO,log2 fold change,-1.3
C=CC(=O)N1[C@@H](c2ccc3c(c2)OCO3)c2[nH]c3ccccc3c2C[C@H]1C(=O)N1CCN(C)CC1,CCNE1 WT-3xFLAG:CDK2 complex,"co-IP TMT proteomics, refers to: KPNA2",HEK-293T,"20 µM, 6 h",relative to: DMSO,log2 fold change,-0.23
CC(=O)[O-].O.O.O.O.[Co+2].[O-]c1ccc(Br)cc1C=NCCN1CCOCC1,,hydroxyl radical scavenging,,80 µM,,inhibition,15.6%
CN1CCC[C@]1(C)/C=C/S(=O)(=O)NC(=O)Nc1c2c(cc3c1CCC3)CCC2,,,"human, whole blood ex vivo","50 mg twice daily, day 14, 3 h, multiple ascending dose, with: LPS and ATP",,IL-18 inhibition,97.2%
CN1CCCNC(=O)c2cccc(c2)C(=O)NCCCN(C)CCCNc2cccc3c2C(=O)c2cccc(c2C3=O)NCCC1,SAS,"RNA-Seq, refers to: MTAP mRNA",,"1 µM, 6 h",relative to: untreated cells,log2 fold change,-1.23
C=CC(=O)Nc1cccc(Cn2ncc3cnc(Nc4cnn(CCOC)c4)nc32)c1,MARK2 human,"binding, KINOMEscan",,100 nM,lower = stronger binding,percent of control,100%
